Measurements of several laboratories.
Compare with care: the assays were run in different laboratories.
Organism: Staphylococcus aureus

| Compound | test | system | setting | MIC |
| --- | --- | --- | --- | --- |
| CN[C@H](CC(C)C)C(=O)N[C@H]1C(=O)N[C@@H](CC(N)=O)C(=O)N[C@H]2C(=O)N[C@H]3C(=O)N[C@H](C(=O)N[C@H](C(=O)O)c4cc(O)cc(O)c4-c4cc3ccc4O)[C@H](O)c3ccc(c(Cl)c3)Oc3cc2cc(c3O[C@@H]2O[C@H](CO)[C@@H](O)[C@H](O)[C@H]2O[C@H]2C[C@](C)(N)[C@H](O)[C@H](C)O2)Oc2ccc(cc2Cl)[C@H]1O | – | MSSA ATCC 9144 | 20 h | 1 to 2 µg/mL |
| N=C(N)NCCC[C@H](NC(=O)[C@@H](N)CCCCN)C(=O)N[C@@H](Cc1c[nH]c2ccccc12)C(=O)N[C@@H](Cc1c[nH]c2ccccc12)C(=O)N[C@@H](CCC(N)=O)C(=O)N[C@@H](Cc1c[nH]c2ccccc12)C(=O)N[C@@H](Cc1c[nH]c2ccccc12)C(=O)N[C@@H](CCCCN)C(N)=O | broth microdilution | USA300, Mueller-Hinton broth | overnight, 37 °C | 8 µM |
| CC(C)C[C@H](NC(=O)[C@H](C)NC(=O)CNC(=O)[C@@H](NC(=O)[C@@H](NC(=O)[C@H](CCCCN)NC(=O)[C@H](CCCCN)NC(=O)[C@@H](NC(=O)[C@H](CC(C)C)NC(=O)[C@H](CCCCN)NC(=O)[C@H](CC(C)C)NC(=O)[C@H](CC(C)C)NC(=O)[C@@H](N)CCCCN)C(C)C)C(C)C)C(C)C)C(=O)NCC(N)=O | – | SH1000 GFP-expressing, nutrient broth | 20 h, 37 °C | 33 µM |
| O=c1c(Cc2ccccc2)nc2ccccc2n1-c1ccc([N+](=O)[O-])cc1[N+](=O)[O-] | microbial growth | ATCC25923 | – | > 500 µg/mL |
| CCC(C)C(=O)c1c(O)cc(O)cc1OC/C=C(\C)CCC=C(C)C (centres unmarked) | broth microdilution | ATCC 29213 (MSSA) | – | 1.56 µg/mL |
| CC[C@H](C)[C@H](NC(=O)[C@H](Cc1c[nH]cn1)NC(=O)[C@H](Cc1c[nH]cn1)NC(=O)[C@H](Cc1ccccc1)NC(=O)[C@@H](N)Cc1ccccc1)C(=O)N[C@@H](Cc1ccccc1)C(=O)N[C@@H](CCCNC(=N)N)C(=O)NCC(=O)N[C@@H](C)C(=O)N[C@H](C(=O)N[C@@H](Cc1c[nH]cn1)C(=O)N[C@H](C(=O)NCC(=O)N[C@@H](CCCCN)C(=O)N[C@H](C(=O)N[C@H](C(=O)N[C@@H](Cc1c[nH]cn1)C(=O)N[C@@H](CCCNC(=N)N)C(=O)N[C@@H](CC(C)C)C(=O)N[C@H](C(=O)N[C@H](C(=O)NCC(N)=O)[C@@H](C)O)C(C)C)[C@@H](C)CC)[C@@H](C)O)C(C)C)C(C)C | broth microdilution | ATCC 25923 | 18 h, 37 °C | 3.1 µg/mL |
| CC[C@H](C)[C@H](NC(=O)[C@H](CCCCN)NC(=O)[C@H](CCCNC(=N)N)NC(=O)[C@@H](NC(=O)[C@H](CC(C)C)NC(=O)[C@H](CCCCN)NC(=O)[C@H](CC(C)C)NC(=O)[C@@H](NC(=O)[C@H](CCCCN)NC(=O)CNC(=O)[C@H](Cc1ccccc1)NC(=O)[C@@H](N)Cc1ccccc1)C(C)C)[C@@H](C)CC)C(=O)N[C@@H](Cc1ccccc1)C(N)=O | broth microdilution | USA300 LAC | 37 °C | 3.1 µM |
| CC[C@H](C)[C@H](NC(=O)CNC(=O)[C@H](CC(=O)O)NC(=O)[C@H](CCCNC(=N)N)NC(=O)[C@@H](NC(=O)[C@H](CC(N)=O)NC(=O)[C@H](CCCNC(=N)N)NC(=O)CNC(=O)[C@@H](NC(=O)[C@H](CCCCN)NC(=O)[C@H](CCC(=O)O)NC(=O)[C@@H](NC(=O)[C@H](CCCCN)NC(=O)[C@H](CCCCN)NC(=O)[C@H](Cc1ccccc1)NC(=O)[C@@H](NC(=O)[C@H](CCCCN)NC(=O)[C@H](Cc1c[nH]c2ccccc12)NC(=O)[C@@H](N)CCCCN)[C@@H](C)CC)[C@@H](C)CC)C(C)C)C(C)C)C(=O)N[C@H](C(=O)N[C@@H](CCCCN)C(=O)N[C@@H](C)C(=O)NCC(=O)N1CCC[C@H]1C(=O)N[C@@H](C)C(=O)N[C@H](C(=O)N[C@@H](CCC(N)=O)C(=O)N[C@H](C(=O)N[C@H](C(=O)NCC(=O)N[C@@H](CCC(N)=O)C(=O)N[C@@H](C)C(=O)N[C@H](C(=O)N[C@@H](CO)C(=O)N[C@H](C(=O)N[C@@H](C)C(=O)N[C@@H](CCCCN)C(N)=O)[C@@H](C)CC)[C@@H](C)O)C(C)C)C(C)C)C(C)C)[C@@H](C)CC | broth microdilution | ATCC 29213 | 20 h, 37 °C | > 200 µg/mL |
| CC[C@H](C)[C@H](NC(=O)[C@H](CC(=O)O)NC(=O)[C@H](Cc1ccccc1)NC(=O)[C@H](CC(C)C)NC(=O)CN)C(=O)N[C@H](C(=O)N[C@@H](CCCCN)C(=O)N[C@@H](CCCCN)C(=O)N[C@H](C(=O)N[C@H](C(=O)N[C@@H](CCCCN)C(=O)N[C@@H](CC(C)C)C(=O)N[C@@H](CC(C)C)C(=O)N[C@@H](CCCCN)C(N)=O)C(C)C)C(C)C)C(C)C | – | SH1000 GFP-expressing, nutrient broth | 20 h, 37 °C | 50 µM |
| COc1cccc(C(N)=O)c1O | – | ATCC 29213 | 50 µg/mL | inactive |
| CSCC[C@H](NC(=O)[C@H](CO)NC(=O)[C@H](CCCCN)NC(=O)[C@H](Cc1c[nH]c2ccccc12)NC(=O)[C@@H](N)CO)C(=O)N[C@@H](C)C(=O)N[C@@H](CCCCN)C(=O)N[C@@H](CCCCN)C(=O)N[C@@H](CC(C)C)C(=O)N[C@@H](CCCCN)C(=O)N[C@@H](CCC(=O)O)C(=O)N[C@@H](Cc1ccc(O)cc1)C(=O)N[C@@H](CCSC)C(=O)N[C@@H](CCC(=O)O)C(=O)N[C@@H](CCCCN)C(=O)N[C@@H](CC(C)C)C(=O)N[C@@H](CCCCN)C(=O)N[C@@H](CCC(N)=O)C(=O)N[C@@H](CCCNC(=N)N)C(=O)N[C@@H](C)C(=O)O | broth microdilution | USA300 LAC | 37 °C | > 100 µM |
| CC(C)C[C@H](NC(=O)[C@H](C)NC(=O)CNC(=O)[C@@H](NC(=O)[C@H](CC(C)C)NC(=O)[C@H](CCCCN)NC(=O)[C@H](CCCCN)NC(=O)[C@H](CC(C)C)NC(=O)[C@H](CC(C)C)NC(=O)[C@H](CCCCN)NC(=O)[C@H](CC(C)C)NC(=O)[C@H](CC(C)C)NC(=O)[C@@H](N)CCCCN)C(C)C)C(=O)NCC(N)=O | – | ATCC 43300, CAMHB | 18 h, 37 °C | 5 µM |
| CC[C@H](C)[C@H](NC(=O)[C@H](CC(C)C)NC(=O)[C@H](C)NC(=O)[C@@H]1CCCN1C(=O)[C@H](CCCNC(=N)N)NC(=O)[C@@H](N)Cc1ccccc1)C(=O)N[C@H](C(=O)N[C@@H](CCCNC(=N)N)C(=O)N[C@H](C(=O)N[C@@H](CCCCN)C(=O)NCC(=O)N[C@H](C(=O)N[C@@H](CCCNC(=N)N)C(=O)N[C@@H](CC(C)C)C(=O)O)[C@@H](C)O)[C@@H](C)O)C(C)C | broth microdilution | USA300 LAC | 37 °C | > 30 µM |
| CC[C@H](C)[C@H](NC(=O)[C@H](CCCCN)NC(=O)[C@H](CCC(=O)O)NC(=O)[C@H](CCCCN)NC(=O)[C@H](CO)NC(=O)[C@H](CCCCN)NC(=O)[C@H](CCCNC(=N)N)NC(=O)[C@H](Cc1ccccc1)NC(=O)[C@H](Cc1ccccc1)NC(=O)[C@H](CC(=O)O)NC(=O)CNC(=O)[C@H](CC(C)C)NC(=O)[C@@H](N)CC(C)C)C(=O)NCC(=O)N[C@@H](CCCCN)C(=O)N[C@@H](CCC(=O)O)C(=O)N[C@@H](Cc1ccccc1)C(=O)N[C@@H](CCCCN)C(=O)N[C@@H](CCCNC(=N)N)C(=O)N[C@H](C(=O)N[C@H](C(=O)N[C@@H](CCC(N)=O)C(=O)N[C@@H](CCCNC(=N)N)C(=O)N[C@H](C(=O)N[C@@H](CCCCN)C(=O)N[C@@H](CC(=O)O)C(=O)N[C@@H](Cc1ccccc1)C(=O)N[C@@H](CC(C)C)C(=O)N[C@@H](CCCNC(=N)N)C(=O)N[C@@H](CC(N)=O)C(=O)N[C@@H](CC(C)C)C(=O)N[C@H](C(=O)N1CCC[C@H]1C(=O)N[C@@H](CCCNC(=N)N)C(=O)N[C@H](C(=O)N[C@@H](CCC(=O)O)C(=O)N[C@@H](CO)C(=O)O)[C@@H](C)O)C(C)C)[C@@H](C)CC)C(C)C)[C@@H](C)CC | broth microdilution | USA300 JE2 wild type | 18 to 20 h | 192 µg/mL |

Repeated from above:
| Compound | test | system | setting | MIC |
| --- | --- | --- | --- | --- |
| CC[C@H](C)[C@H](NC(=O)[C@H](CC(C)C)NC(=O)[C@H](C)NC(=O)[C@@H]1CCCN1C(=O)[C@H](CCCNC(=N)N)NC(=O)[C@@H](N)Cc1ccccc1)C(=O)N[C@H](C(=O)N[C@@H](CCCNC(=N)N)C(=O)N[C@H](C(=O)N[C@@H](CCCCN)C(=O)NCC(=O)N[C@H](C(=O)N[C@@H](CCCNC(=N)N)C(=O)N[C@@H](CC(C)C)C(=O)O)[C@@H](C)O)[C@@H](C)O)C(C)C | broth microdilution | USA300 LAC | 37 °C | > 30 µM |
| CC[C@H](C)[C@H](NC(=O)[C@H](CCCCN)NC(=O)[C@H](CCC(=O)O)NC(=O)[C@H](CCCCN)NC(=O)[C@H](CO)NC(=O)[C@H](CCCCN)NC(=O)[C@H](CCCNC(=N)N)NC(=O)[C@H](Cc1ccccc1)NC(=O)[C@H](Cc1ccccc1)NC(=O)[C@H](CC(=O)O)NC(=O)CNC(=O)[C@H](CC(C)C)NC(=O)[C@@H](N)CC(C)C)C(=O)NCC(=O)N[C@@H](CCCCN)C(=O)N[C@@H](CCC(=O)O)C(=O)N[C@@H](Cc1ccccc1)C(=O)N[C@@H](CCCCN)C(=O)N[C@@H](CCCNC(=N)N)C(=O)N[C@H](C(=O)N[C@H](C(=O)N[C@@H](CCC(N)=O)C(=O)N[C@@H](CCCNC(=N)N)C(=O)N[C@H](C(=O)N[C@@H](CCCCN)C(=O)N[C@@H](CC(=O)O)C(=O)N[C@@H](Cc1ccccc1)C(=O)N[C@@H](CC(C)C)C(=O)N[C@@H](CCCNC(=N)N)C(=O)N[C@@H](CC(N)=O)C(=O)N[C@@H](CC(C)C)C(=O)N[C@H](C(=O)N1CCC[C@H]1C(=O)N[C@@H](CCCNC(=N)N)C(=O)N[C@H](C(=O)N[C@@H](CCC(=O)O)C(=O)N[C@@H](CO)C(=O)O)[C@@H](C)O)C(C)C)[C@@H](C)CC)C(C)C)[C@@H](C)CC | broth microdilution | USA300 JE2 wild type | 18 to 20 h | 192 µg/mL |
